Assay results from different studies.
Compare with care: the assays were run in different laboratories. Values joined by “and” are separate records of one study, mostly repeats; a detail may differ.
APP amyloid-beta insoluble aggregates: Amyloid-beta precursor protein, amyloid-beta insoluble aggregates (APP, Homo sapiens, UniProt P05067)
APP amyloid-beta fibrils: Amyloid-beta precursor protein, amyloid-beta fibrils (APP, Homo sapiens, UniProt P05067)

target	test	test system	setting	how to read	quantity	value	SMILES
APP amyloid-beta insoluble aggregates	radioligand filter binding	AD brain insoluble fraction	250 nM	higher = more binding	specific binding	1380 a.u. and 2370 a.u.	O=C1c2sc(-c3ccc(N4CCC(CO)CC4)nc3F)nc2CCN1c1cccnc1
APP amyloid-beta fibrils	thioflavin T, measured: Aβ42 pre-formed fibrils	–	50 µM	–	fibril dissociation	19.8%	CCC1CC2C(C)=CC3C(=O)C=CCC3C=CC(C)=CC2C(=O)O1 (centres unmarked)
Amyloid-beta precursor protein, amyloid-beta aggregates (APP, Homo sapiens, UniProt P05067)	TEM and dot blot	–	2 µM, together with: amyloid beta 20 µM	–	amyloid beta aggregation	no effect	CN1CCN(c2ccc(/C=C/c3cc(=O)cc(/C=C/c4ccc(N5CCN(C)CC5)cc4)o3)cc2)CC1
APP amyloid-beta fibrils	thioflavin T, measured: Aβ42 pre-formed fibrils	–	5 µM	–	fibril dissociation	0.36%	CCC1CC2C(C)=CC3C(=O)CCCC3C=CC(C)=CC2C(=O)O1 (centres unmarked)
Amyloid-beta precursor protein (APP, Homo sapiens, UniProt P05067)	binding, fluorescence	–	2 µM, 7.4 min, pH 10, Abeta pre-incubated 4 h, together with: 20 µM pre-incubated Abeta species	–	fluorescence enhancement	3.6 fold	O=c1cc(/C=C/c2ccc(N3CCCC3)cc2)oc(/C=C/c2ccc(N3CCCC3)cc2)c1
Amyloid-beta precursor protein, fibril (APP, Homo sapiens, UniProt P05067)	amyloid aggregation, inhibitor	–	5 µM	–	inhibition	10%	CC(C)C[C@H](NC(=O)CCS[C@H]1O[C@H](CO)[C@@H](O)[C@H](O)[C@H]1O)C(=O)N1CCC[C@H]1C(=O)N[C@@H](Cc1ccccc1)C(=O)N[C@@H](Cc1ccccc1)C(=O)N[C@@H](CC(=O)O)C(=O)N[C@@H](CC(=O)O)C(=O)N[C@@H](C)C(=O)N[C@@H](Cc1c[nH]cn1)C(=O)N[C@@H](CCCCN)C(N)=O
APP amyloid-beta insoluble aggregates	radioligand filter binding	AD brain insoluble fraction	100 nM	higher = more binding	specific binding	1150 a.u. and 692 a.u.	O=C1c2sc(-c3ccc(N4CCC(F)C4)nc3F)nc2CCN1c1cccnc1 (centres unmarked)
Amyloid-beta precursor protein, fibrillar amyloid-beta (APP, Homo sapiens, UniProt P05067)	TEM	–	2.0 eq, 8 h, fibril 2, together with: APP 20 µM	–	fibril diameter	40.6 nm	CCCCCCCCCCCCCCCC(=O)OCC(CSC[C@H](N)C(=O)N[C@@H](CO)C(=O)N[C@@H](CCCCN)C(=O)N[C@@H](CCCCN)C(=O)N[C@@H](CCCCN)C(=O)N[C@@H](CCCCN)C(=O)NCCCCCC(=O)N[C@@H](CCCCN)C(=O)N[C@@H](CC(C)C)C(=O)N[C@H](C(=O)N[C@@H](Cc1ccccc1)C(=O)N[C@@H](Cc1ccccc1)C(=O)N[C@@H](Cc1ccc2ccccc2c1)C(=O)O)C(C)C)OC(=O)CCCCCCCCCCCCCCC (some centres unmarked)

Repeated from above:
target	test	test system	setting	how to read	quantity	value	SMILES
Amyloid-beta precursor protein, fibrillar amyloid-beta (APP, Homo sapiens, UniProt P05067)	TEM	–	2.0 eq, 8 h, fibril 2, together with: APP 20 µM	–	fibril diameter	40.6 nm	CCCCCCCCCCCCCCCC(=O)OCC(CSC[C@H](N)C(=O)N[C@@H](CO)C(=O)N[C@@H](CCCCN)C(=O)N[C@@H](CCCCN)C(=O)N[C@@H](CCCCN)C(=O)N[C@@H](CCCCN)C(=O)NCCCCCC(=O)N[C@@H](CCCCN)C(=O)N[C@@H](CC(C)C)C(=O)N[C@H](C(=O)N[C@@H](Cc1ccccc1)C(=O)N[C@@H](Cc1ccccc1)C(=O)N[C@@H](Cc1ccc2ccccc2c1)C(=O)O)C(C)C)OC(=O)CCCCCCCCCCCCCCC (some centres unmarked)
